Measured values gathered from unrelated publications.
Lines come from different studies, so protocols differ. “And” joins repeats or separate records; there may be more than shown. ± gives the spread as reported.
UniProt P04049, sequence (whole entry, looked up): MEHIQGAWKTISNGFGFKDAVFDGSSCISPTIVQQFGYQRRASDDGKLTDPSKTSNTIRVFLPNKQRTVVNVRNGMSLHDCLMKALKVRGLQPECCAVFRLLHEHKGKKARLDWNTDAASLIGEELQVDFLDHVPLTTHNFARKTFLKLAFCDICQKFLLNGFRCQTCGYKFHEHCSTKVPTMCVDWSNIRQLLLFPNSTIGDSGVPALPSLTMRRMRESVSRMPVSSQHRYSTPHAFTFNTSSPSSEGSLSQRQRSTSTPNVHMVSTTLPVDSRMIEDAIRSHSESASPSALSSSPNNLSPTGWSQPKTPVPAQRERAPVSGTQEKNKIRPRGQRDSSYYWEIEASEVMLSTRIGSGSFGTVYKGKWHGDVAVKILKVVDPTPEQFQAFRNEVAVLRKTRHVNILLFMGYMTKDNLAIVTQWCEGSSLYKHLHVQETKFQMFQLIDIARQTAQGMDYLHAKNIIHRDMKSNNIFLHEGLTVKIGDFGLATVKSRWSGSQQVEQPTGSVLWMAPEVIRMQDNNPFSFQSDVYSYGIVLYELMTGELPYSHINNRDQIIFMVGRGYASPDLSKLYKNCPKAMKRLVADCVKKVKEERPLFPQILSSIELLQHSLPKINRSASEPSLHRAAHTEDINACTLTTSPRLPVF
UniProt P41586, sequence (whole entry, unmodified, looked up): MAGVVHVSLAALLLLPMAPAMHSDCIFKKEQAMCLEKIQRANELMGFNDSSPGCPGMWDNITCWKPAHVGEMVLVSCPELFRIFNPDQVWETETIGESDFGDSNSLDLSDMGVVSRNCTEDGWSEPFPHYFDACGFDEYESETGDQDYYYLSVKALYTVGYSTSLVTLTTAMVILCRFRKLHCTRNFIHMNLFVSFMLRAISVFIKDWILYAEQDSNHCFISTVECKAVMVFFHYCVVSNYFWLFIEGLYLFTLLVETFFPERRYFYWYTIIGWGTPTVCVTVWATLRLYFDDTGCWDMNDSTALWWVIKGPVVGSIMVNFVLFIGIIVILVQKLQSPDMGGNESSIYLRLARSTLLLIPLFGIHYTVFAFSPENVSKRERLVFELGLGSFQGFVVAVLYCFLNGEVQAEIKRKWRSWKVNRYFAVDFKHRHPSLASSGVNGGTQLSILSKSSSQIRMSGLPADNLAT

The MIC of `Cc1ccc2nc(C)c(C(=O)NCc3ccccc3)n2c1` is reported as 4 µM (Mycobacterium kansasii; microbial growth; 6 days).
With `O=C(NNc1ccc(Cl)cc1)c1nnc(CC23CC4CC(CC(C4)C2)C3)o1` the inhibition was 100% (Fusarium graminearum; fungal growth, inhibitor; 50 µg/mL).
`Cc1ccc(-c2nc3ccc(C)cn3c2CC(=O)NCc2ccc(N(C)C)cc2)cc1` gave an MIC of over 50 µM (Mycobacteroides abscessus; ATCC 19977; 72 h).
`COc1ccccc1-c1n[nH]c2nc(NC3CCN(C(=O)Cc4ccc(F)cc4F)CC3)ncc12` has a relative abundance of 0.99 (bead binding, competition bead pull-down, refers to: LINJ.35.4540; Leishmania donovani axenic amastigote extract; 10 µM; relative to: vehicle).
For `Cc1ccc(CNC(=O)Cc2c(C)nc3ccc(C)cn23)cc1`, the MIC was over 50 µM (Mycobacterium avium; microbial growth; 6 days).
`CN[C@@H]1[C@H](O)[C@H](NC)[C@H]2O[C@]3(O)[C@H](O[C@@H]2[C@H]1O)O[C@H](C)C[C@H]3NC(=O)Cc1cscn1` gave an MIC of 25 to 50 µg/mL (Mycobacterium avium; microbial growth; ATCC25291).
`CS(C)(=O)=Nc1ccc(-c2ccc(-c3nc4cc(O[C@@H]5CO[C@H]6[C@@H]5OC[C@H]6O)[nH]c4cc3F)cc2)cc1` has an inhibition of 17% (RAF1 (Homo sapiens, UniProt P04049); enzyme activity, inhibitor; 10 µM).
`COc1ccccc1-c1n[nH]c2nc(N[C@H]3CC[C@H](NS(=O)(=O)CC(C)C)CC3)ncc12` has a relative abundance of 1.49 (bead binding, competition bead pull-down, refers to: LINJ.28.2700; Leishmania donovani extract; 10 µM; relative to: vehicle).
For `Cc1ccc2nc(C)c(C(=O)C(=O)N(C)C)n2c1`, the MIC was over 128 µM (Mycobacteroides abscessus; ATCC 19977; 72 h).
The MIC90 of `Cc1nc2cc(C(F)(F)F)ccn2c1C(=O)NCc1ccc2oc(-c3ccc(Cl)cc3)nc2c1` is reported as over 100 µM (Mycobacteroides abscessus; RFP fluorescence; ATCC 19977, RFP reporter).
With `CSCC[C@H](NC(=O)[C@H](CCC(N)=O)NC(=O)[C@H](CCCCN)NC(=O)[C@H](CCCNC(=N)N)NC(=O)[C@H](Cc1ccc(O)cc1)NC(=O)[C@H](CCCNC(=N)N)NC(=O)[C@H](CO)NC(=O)[C@H](Cc1ccc(O)cc1)NC(=O)[C@H](CO)NC(=O)[C@H](CC(=O)O)NC(=O)[C@@H](NC(=O)[C@@H](N)Cc1ccccc1)[C@@H](C)O)C(=O)N[C@@H](C)C(=O)N[C@H](C(=O)N[C@@H](CCCCN)C(=O)N[C@@H](CCCCN)C(=O)N[C@@H](Cc1ccc(O)cc1)C(=O)N[C@@H](CC(C)C)C(=O)N[C@@H](C)C(=O)N[C@@H](C)C(=O)N[C@H](C(=O)N[C@@H](CC(C)C)C(=O)NCC(=O)N[C@@H](CCCCN)C(=O)N[C@@H](CCCNC(=N)N)C(=O)N[C@@H](Cc1ccc(O)cc1)C(=O)N[C@@H](CCCCN)C(=O)N[C@@H](CCC(N)=O)C(=O)N[C@@H](CCCCn1cc(C[C@H](NC(=O)CNC(=O)[C@H](CO)NC(=O)[C@H](CCCNC(=N)N)NC(=O)[C@H](CO)NC(=O)[C@H](CC(C)C)NC(=O)[C@H](CC(C)C)NC(=O)CNC(=O)[C@H](C)NC(=O)[C@H](CC(C)C)NC(=O)[C@H](CCCNC(=N)N)NC(=O)[C@H](Cc2c[nH]cn2)NC(=O)[C@@H](NC(=O)[C@@H](N)C(C)C)[C@@H](C)O)C(=O)N[C@H](C(=O)N[C@H](C(=O)N[C@@H](CCCCN)C(=O)N[C@@H](CC(N)=O)C(=O)N[C@@H](CC(N)=O)C(=O)N[C@@H](Cc2ccccc2)C(=O)N[C@H](C(=O)N2CCC[C@H]2C(=O)N[C@H](C(=O)N[C@@H](CC(N)=O)C(=O)N[C@H](C(=O)NCC(=O)N[C@@H](CO)C(=O)N[C@@H](CCCCN)C(=O)N[C@@H](C)C(=O)N[C@@H](Cc2ccccc2)C(N)=O)C(C)C)[C@@H](C)O)C(C)C)C(C)C)C(C)C)nn1)C(=O)N[C@H](C(=O)N[C@@H](CCCCN)C(=O)N[C@@H](CC(N)=O)C(=O)N[C@@H](CCCCN)C(N)=O)C(C)C)C(C)C)C(C)C` the Kb was 288 nM (ADCYAP1R1 (Homo sapiens, UniProt P41586, del89-109); cAMP accumulation, antagonist; added: PACAP-27).
The MIC of `CN[C@@H]1[C@H](O)[C@H](NC)[C@H]2O[C@]3(O)[C@H](O[C@@H]2[C@H]1O)O[C@H](C)C[C@H]3NC(=O)Cc1ccccn1` is reported as 50 µg/mL (Mycobacterium avium; microbial growth; ATCC25291).
The normalised growth of `Cc1cc(Oc2nc(N3CC[C@@H](c4ccncc4)C3)ncc2F)[nH]n1` is reported as 14% and 13% (Mycobacterium tuberculosis; OD; H37Rv PurF CRISPRi knockdown; 0.003906 µM, added: anhydrotetracycline low).
`Cc1cc(C(=O)Nc2nc3cccc(C)c3n2[C@H]2CCCCN(C(=O)/C=C/CN(C)C)C2)ccn1` — result for “EC50 fold shift”: 0.5 fold and 0.81 fold (Trypanosoma brucei; cell growth, Alamar Blue; 2T1 overexpressing Tb927.10.4940; relative to: parental 2T1).
With `CN[C@@H]1[C@H](O)[C@H](NC)[C@H]2O[C@]3(O)[C@H](O[C@@H]2[C@H]1O)O[C@H](C)C[C@H]3NC(=O)Cc1cc(Cl)ccn1` the MIC was 25 to 50 µg/mL (Mycobacteroides abscessus; microbial growth; ATCC19977).
`O=C1NC2(CC2)COc2ncc(F)cc2[C@H]2COCCN2c2ccn3ncc1c3n2` — result for “organ-to-body weight ratio”: 0.428 ± 0.028% (Sprague-Dawley rat, male, brain; oral, 5 mg/kg/day, 4 weeks dosing, end of recovery).
The MIC of `CN[C@@H]1[C@H](O)[C@H](NC)[C@H]2O[C@]3(O)[C@H](O[C@@H]2[C@H]1O)O[C@H](C)C[C@H]3NC(=O)Cc1ccc(F)cn1` is reported as 12.5 µg/mL (Streptococcus pyogenes; microbial growth, broth dilution; ATCC700294).
`O=C(NNc1ccccc1)c1nnc(C23CC4CC(CC(C4)C2)C3)o1` has an inhibition of 54.2 ± 2.6% (Fusarium graminearum; fungal growth, inhibitor; 50 µg/mL).
`C#CCN1C(=O)C(CC#C)(C(=O)OCC)Oc2ccccc21` (stereo not drawn) has an inhibition of under 25% (Fusarium graminearum; microbial growth; 50 µg/mL).
With `CC(C)[C@@H]1NC(=O)[C@@H]2CCCN2C(=O)[C@@H](C(C)C)NC(=O)[C@H]2CCCN2C(=O)[C@H](C(C)C)NC(=O)[C@@H]2CCCN2C(=O)[C@@H](C(C)C)NC(=O)[C@H]2CCCN2C(=O)[C@H](C(C)C)NC(=O)[C@@H]2CCCN2C(=O)[C@@H](C(C)C)NC(=O)[C@H]2CCCN2C1=O` the bi-ionic potential was -66 mV (sheep lipid bilayer; 10 µM, pH 7.4, 23 °C, added: 10 mM K+ vs NH4 chloride).
The MIC of `CCc1ccn2c(C(=O)NCc3ccc(C)cc3)c(C)nc2c1` is reported as 46.3 µM (Mycobacterium avium; microbial growth; 6 days).
With `CN[C@@H]1[C@H](O)[C@H](NC)[C@H]2O[C@]3(O)[C@H](O[C@@H]2[C@H]1O)O[C@H](C)C[C@H]3NC(=O)Cc1ccc(Cl)cn1` the MIC was over 200 µg/mL (Proteus vulgaris; microbial growth, broth dilution; ATCC33420).
The inhibition of `CC(C)CC(C(=O)N1CC2(CC1C#N)C(=O)Nc1ccccc12)N(C)C(=O)c1cc2c(F)cc(F)c(F)c2[nH]1` (stereo not drawn) is reported as 107% (human coronavirus 229E; viral replication; MRC-5; 0.01 µM).
With `CC(C)(C)C(=O)OCOP(=O)(OCOC(=O)C(C)(C)C)C1CCCN(O)C1=O` (stereo not drawn) the CC50 was over 100000 nM (OVCAR-3).
